# Published values of several laboratories.
# Compare with care: the assays were run in different laboratories.
# PIP4K2C: Phosphatidylinositol 5-phosphate 4-kinase type-2 gamma (PIP4K2C, Homo sapiens, UniProt Q8TBX8)
# Sequence of UniProt Q8TBX8 (whole entry, looked up): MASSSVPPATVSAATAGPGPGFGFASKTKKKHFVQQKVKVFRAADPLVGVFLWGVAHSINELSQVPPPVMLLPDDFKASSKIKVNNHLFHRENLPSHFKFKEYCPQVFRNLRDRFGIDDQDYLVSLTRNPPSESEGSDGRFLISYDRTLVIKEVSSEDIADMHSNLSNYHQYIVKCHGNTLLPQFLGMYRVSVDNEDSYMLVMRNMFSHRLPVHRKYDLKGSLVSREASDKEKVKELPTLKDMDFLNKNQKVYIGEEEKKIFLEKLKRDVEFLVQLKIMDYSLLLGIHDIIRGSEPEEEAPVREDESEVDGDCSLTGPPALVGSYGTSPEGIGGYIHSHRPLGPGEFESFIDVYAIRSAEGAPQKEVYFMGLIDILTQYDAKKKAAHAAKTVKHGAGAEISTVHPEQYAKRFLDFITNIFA
# RET M918T: Proto-oncogene tyrosine-protein kinase receptor Ret (RET, Homo sapiens, UniProt P07949, M918T)
# Sequence of UniProt P07949 (whole entry, unmodified, looked up): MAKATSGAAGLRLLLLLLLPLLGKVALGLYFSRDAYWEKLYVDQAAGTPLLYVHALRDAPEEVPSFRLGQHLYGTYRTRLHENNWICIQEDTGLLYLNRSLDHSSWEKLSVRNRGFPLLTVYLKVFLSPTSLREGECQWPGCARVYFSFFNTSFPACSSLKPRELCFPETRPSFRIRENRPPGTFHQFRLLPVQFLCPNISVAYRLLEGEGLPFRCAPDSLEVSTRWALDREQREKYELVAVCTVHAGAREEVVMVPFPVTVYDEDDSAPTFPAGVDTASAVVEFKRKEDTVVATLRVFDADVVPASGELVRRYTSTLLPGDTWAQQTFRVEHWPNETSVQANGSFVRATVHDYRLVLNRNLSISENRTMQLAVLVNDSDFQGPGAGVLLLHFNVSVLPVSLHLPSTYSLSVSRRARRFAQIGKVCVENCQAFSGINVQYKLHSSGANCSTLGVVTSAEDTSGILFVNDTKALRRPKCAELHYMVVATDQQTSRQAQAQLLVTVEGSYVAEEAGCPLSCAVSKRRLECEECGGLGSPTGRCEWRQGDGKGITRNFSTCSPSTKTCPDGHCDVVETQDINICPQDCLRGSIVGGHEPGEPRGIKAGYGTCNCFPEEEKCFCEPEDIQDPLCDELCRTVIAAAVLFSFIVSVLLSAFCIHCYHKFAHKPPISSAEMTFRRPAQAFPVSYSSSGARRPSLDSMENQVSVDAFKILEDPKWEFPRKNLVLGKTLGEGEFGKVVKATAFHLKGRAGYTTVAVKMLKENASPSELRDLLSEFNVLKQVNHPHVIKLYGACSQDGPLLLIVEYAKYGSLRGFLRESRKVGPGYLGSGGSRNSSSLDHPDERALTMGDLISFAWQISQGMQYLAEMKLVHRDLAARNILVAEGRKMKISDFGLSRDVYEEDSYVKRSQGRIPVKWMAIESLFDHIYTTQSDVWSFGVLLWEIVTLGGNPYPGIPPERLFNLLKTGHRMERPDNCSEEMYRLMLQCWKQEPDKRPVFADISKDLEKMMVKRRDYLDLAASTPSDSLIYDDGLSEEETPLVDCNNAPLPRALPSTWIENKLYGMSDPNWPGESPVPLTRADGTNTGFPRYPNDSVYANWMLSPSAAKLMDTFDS
# Sequence of UniProt Q9UIF8 (whole entry, looked up): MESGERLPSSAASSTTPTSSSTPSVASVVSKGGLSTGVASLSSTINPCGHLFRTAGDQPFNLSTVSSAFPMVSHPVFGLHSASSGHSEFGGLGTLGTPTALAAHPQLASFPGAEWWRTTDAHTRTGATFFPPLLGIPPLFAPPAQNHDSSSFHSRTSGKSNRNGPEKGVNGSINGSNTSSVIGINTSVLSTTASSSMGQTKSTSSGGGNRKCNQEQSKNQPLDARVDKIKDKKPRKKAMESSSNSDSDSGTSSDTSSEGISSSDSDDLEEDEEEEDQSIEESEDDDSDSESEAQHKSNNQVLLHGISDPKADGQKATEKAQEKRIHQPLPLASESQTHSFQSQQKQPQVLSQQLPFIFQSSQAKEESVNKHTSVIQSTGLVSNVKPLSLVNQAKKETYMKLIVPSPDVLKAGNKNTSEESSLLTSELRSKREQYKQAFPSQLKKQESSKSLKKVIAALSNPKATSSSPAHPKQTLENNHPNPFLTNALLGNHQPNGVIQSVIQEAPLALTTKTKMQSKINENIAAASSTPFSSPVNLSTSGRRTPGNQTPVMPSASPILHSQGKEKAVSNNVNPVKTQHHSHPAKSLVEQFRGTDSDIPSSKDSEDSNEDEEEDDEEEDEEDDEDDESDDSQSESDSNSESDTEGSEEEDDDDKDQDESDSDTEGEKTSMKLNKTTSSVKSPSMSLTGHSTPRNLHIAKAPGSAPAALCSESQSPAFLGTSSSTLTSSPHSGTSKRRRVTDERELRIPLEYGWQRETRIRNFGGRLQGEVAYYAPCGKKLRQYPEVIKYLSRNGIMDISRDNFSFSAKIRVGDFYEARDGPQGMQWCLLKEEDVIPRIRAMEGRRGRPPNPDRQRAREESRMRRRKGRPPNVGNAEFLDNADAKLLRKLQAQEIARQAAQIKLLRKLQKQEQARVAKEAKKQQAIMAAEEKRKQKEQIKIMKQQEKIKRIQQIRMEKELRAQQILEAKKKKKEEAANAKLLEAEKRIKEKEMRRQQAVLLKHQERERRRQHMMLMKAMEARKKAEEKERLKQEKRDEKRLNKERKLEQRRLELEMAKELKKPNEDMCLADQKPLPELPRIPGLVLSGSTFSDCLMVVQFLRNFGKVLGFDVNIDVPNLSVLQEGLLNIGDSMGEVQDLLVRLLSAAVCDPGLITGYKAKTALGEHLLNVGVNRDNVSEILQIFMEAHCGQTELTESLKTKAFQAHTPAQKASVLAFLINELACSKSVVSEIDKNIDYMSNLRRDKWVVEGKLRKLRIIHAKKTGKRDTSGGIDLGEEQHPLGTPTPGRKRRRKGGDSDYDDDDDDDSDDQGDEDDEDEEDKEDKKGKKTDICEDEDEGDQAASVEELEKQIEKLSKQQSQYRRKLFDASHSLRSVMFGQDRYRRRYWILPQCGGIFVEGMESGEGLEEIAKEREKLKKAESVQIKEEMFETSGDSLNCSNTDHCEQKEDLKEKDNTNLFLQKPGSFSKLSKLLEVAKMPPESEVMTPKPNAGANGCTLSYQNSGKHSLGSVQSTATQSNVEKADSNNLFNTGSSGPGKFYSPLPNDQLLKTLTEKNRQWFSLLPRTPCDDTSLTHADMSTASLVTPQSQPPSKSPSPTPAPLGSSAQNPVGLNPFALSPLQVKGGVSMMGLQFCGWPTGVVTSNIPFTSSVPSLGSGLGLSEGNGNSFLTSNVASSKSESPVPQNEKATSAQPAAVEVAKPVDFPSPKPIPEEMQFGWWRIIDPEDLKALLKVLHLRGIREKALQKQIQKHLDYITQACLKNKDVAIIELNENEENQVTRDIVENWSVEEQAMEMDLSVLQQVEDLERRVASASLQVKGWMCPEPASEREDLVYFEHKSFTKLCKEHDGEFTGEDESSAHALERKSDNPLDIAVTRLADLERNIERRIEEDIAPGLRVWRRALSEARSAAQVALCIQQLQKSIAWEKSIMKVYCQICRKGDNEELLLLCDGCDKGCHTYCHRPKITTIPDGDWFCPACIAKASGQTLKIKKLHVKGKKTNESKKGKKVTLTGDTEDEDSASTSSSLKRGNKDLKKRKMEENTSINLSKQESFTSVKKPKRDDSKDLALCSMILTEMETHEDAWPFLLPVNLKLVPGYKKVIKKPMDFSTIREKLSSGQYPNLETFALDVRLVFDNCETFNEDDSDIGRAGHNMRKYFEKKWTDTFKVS
# Sequence of UniProt Q6PL18 (whole entry, looked up): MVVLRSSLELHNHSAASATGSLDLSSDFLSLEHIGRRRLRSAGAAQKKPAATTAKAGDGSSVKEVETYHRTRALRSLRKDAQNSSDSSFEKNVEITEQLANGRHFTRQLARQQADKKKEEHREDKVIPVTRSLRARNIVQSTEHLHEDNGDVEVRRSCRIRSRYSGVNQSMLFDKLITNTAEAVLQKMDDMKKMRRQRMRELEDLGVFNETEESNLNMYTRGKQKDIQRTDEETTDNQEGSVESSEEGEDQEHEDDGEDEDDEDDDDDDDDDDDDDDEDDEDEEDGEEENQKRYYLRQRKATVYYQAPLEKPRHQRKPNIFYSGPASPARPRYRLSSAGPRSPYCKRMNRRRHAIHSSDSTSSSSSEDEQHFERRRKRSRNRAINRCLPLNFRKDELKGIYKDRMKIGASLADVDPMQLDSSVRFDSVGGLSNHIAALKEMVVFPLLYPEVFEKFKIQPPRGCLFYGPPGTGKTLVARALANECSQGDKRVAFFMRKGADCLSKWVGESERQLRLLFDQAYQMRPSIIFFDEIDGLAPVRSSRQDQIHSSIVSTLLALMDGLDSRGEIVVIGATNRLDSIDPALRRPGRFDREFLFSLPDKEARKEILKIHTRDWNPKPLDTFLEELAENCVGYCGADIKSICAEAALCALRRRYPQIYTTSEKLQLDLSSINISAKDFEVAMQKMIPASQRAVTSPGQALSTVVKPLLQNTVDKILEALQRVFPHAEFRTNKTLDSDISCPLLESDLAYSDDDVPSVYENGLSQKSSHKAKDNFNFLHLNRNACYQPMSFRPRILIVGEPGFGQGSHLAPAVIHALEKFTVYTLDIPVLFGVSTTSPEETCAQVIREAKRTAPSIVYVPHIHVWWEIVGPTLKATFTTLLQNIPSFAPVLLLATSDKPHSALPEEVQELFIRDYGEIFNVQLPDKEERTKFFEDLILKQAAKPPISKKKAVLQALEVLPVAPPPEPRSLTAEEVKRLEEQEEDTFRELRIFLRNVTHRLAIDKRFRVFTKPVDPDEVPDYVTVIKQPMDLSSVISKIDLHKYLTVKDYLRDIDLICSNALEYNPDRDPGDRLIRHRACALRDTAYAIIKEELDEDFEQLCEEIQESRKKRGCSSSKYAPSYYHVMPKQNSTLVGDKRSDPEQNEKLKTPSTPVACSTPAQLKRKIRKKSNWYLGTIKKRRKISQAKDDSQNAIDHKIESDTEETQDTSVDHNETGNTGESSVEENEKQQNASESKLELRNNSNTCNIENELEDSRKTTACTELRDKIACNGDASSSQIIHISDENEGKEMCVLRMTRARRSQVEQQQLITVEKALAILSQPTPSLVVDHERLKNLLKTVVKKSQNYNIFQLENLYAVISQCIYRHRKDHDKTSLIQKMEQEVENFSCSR
target,assay,conditions,how to read,remaining binding,Structure (SMILES)
PIP4K2C,"binding, competition with immobilised ligand",1 µM,,5.2%,Cn1cc(-c2ccc3[nH]c4c(c3c2)-c2nc(N)ncc2CCC4)cn1
"Interferon-induced, double-stranded RNA-activated protein kinase (EIF2AK2, Homo sapiens, UniProt P19525)","binding, competition with immobilised ligand",0.1 µM,,100%,Cc1cc(NC(=O)[C@H](O)c2cc(F)cc(F)c2)ccc1-c1cnc(N)c(C(=O)NC(C)C)c1
RET M918T,binding,1 µM,,98%,COc1cc(Nc2nc(C)cc(-c3cnn4nc(OC)ccc34)n2)cc(C(F)(F)F)c1
"Bromodomain adjacent to zinc finger domain protein 2B, bromodomain (BAZ2B, Homo sapiens, UniProt Q9UIF8)","binding, competition with immobilised ligand",1 µM,,100%,Cn1cc(-c2cc(N3CCCCS3(=O)=O)ccc2N[C@H]2CC[C@H](C)CC2)c2cc[nH]c2c1=O (stereo in doubt)
PIP4K2C,"binding, competition with immobilised ligand",1 µM,,0.3%,Cn1cc(-c2ccc3[nH]c4c(c3c2)-c2nc(N)ncc2CC4)cn1
"Tyrosine-protein kinase ABL1, phosphorylated (ABL1, Homo sapiens, UniProt P00519, E255K)","binding, competition with immobilised ligand",1 µM,,96%,C=CC(=O)N1CCCC(n2c(=O)c3ncccc3n(Cc3ccc(Oc4ccccc4)cc3)c2=O)C1 (stereo not drawn)
"Tyrosine-protein kinase ABL1, non-phosphorylated (ABL1, Homo sapiens, UniProt P00519, T315I)",KinomeScan,0.1 µM,reference: untreated,97%,CNC1C[S+]2CC[S+]3CC[S+](C1)[Ru-4]321([N]=C=S)[n]2c3ccc(OC)cc3c3c4c(c5cc(F)c[n+]1c5c32)C(=O)NC4=O (stereo not drawn)
PIP4K2C,"binding, competition with immobilised ligand",1 µM,,3.6%,CC(C)(O)CC#Cc1ccc2[nH]c3c(c2c1)-c1nc(N)ncc1CCC3
"Epidermal growth factor receptor (EGFR, Homo sapiens, UniProt P00533, del746-750)",binding,0.1 µM,,77%,Cc1cnc2nc1Nc1cccc(c1)COC/C=C/COCc1cc(ccc1OCCN1CCOCC1)N2
"ATPase family AAA domain-containing protein 2 (ATAD2, Homo sapiens, UniProt Q6PL18)","binding, competition with immobilised ligand",10 µM,,91%,CC(=O)N1c2ccc(-c3ccc(CNC(=O)c4cn5cc(-c6cnc(N)nc6)nc(N6CCOCC6)c5n4)cc3)cc2CC[C@@H]1C
"Phosphatidylinositol 4,5-bisphosphate 3-kinase catalytic subunit gamma isoform (PIK3CG, Homo sapiens, UniProt P48736)","binding, competition with immobilised ligand",10 µM,,0%,CC(=O)c1cnc(N)nc1N1CC[C@H]1c1nn2ccc(Cl)c2c(=O)n1-c1ccccc1
RET M918T,"binding, competition with immobilised ligand",1 µM,,100%,COc1cc(Nc2nccc(-c3cnn4nc(OC)ccc34)n2)cc(C(F)(F)F)c1

# For quick reference, copied from above:
target,assay,conditions,how to read,remaining binding,Structure (SMILES)
PIP4K2C,"binding, competition with immobilised ligand",1 µM,,5.2%,Cn1cc(-c2ccc3[nH]c4c(c3c2)-c2nc(N)ncc2CCC4)cn1
"Interferon-induced, double-stranded RNA-activated protein kinase (EIF2AK2, Homo sapiens, UniProt P19525)","binding, competition with immobilised ligand",0.1 µM,,100%,Cc1cc(NC(=O)[C@H](O)c2cc(F)cc(F)c2)ccc1-c1cnc(N)c(C(=O)NC(C)C)c1
